Published values gathered from unrelated publications.
Parts stem from different laboratories: compare values within a part only.

Set 1 — technique: RNA Bind-n-Seq; form: RNA; matrix: in vitro; concentration: 200 nM; notes: whole 134-nt RNA, ends assumed; together with: 150 mM LiCl; baseline: input library; direction: higher = stronger binding; quantity: log2 enrichment; library: 7-deaza-guanosine replaces G
Target: Fragile X messenger ribonucleoprotein 1, C-terminal low-complexity region (Fmr1, Mus musculus, UniProt P35922)
Shared flanks, not repeated: GGGAGUUCUACAGUCCGACGAUC … UGGAAUUCUCGGGUGUCAAGG
UACAUUCUUUACCCCUUGUUUUAAUUUGAACCCCACCAUAUGGAUUUUUUUCCUUAAGAAAAUCUCCUUUUAGGAGAUCAUGGUGUCACA: 1.27
CACAGACAACAAGCACCCACACAGACACAGAGGGAAGGGGUUGGGAUGGGGACAGGGUGCACAGCAGGGCGGGGUAGGACCCCAGCCCCU: 0.137
ACCAUGCAGGUGGGCAUCUUUGGGAAGUGGGGCAAGGGGGGGAUAGGGAGGGGGGUAACACUUUGGGAACAGGUGGUCCCAGGUCGUUUU: 1.38
CCUGUGCUACACAUCGUAUGUACCGAAUCGGGGAAAAAGGGGAAAAAGGGGUUUUUGGGGAAAGUAUUAUGUUACGCCGUUCGGAUCUGC: 0.111
CAAGUCCUGUGCUACACAUCGUAUGUACCGAAUCGGAAAGGUUUUUGGUUUUUGGAAAGUAUUAUGUUACGCCGUUCGGAUCUGCACUUC: -2.16
UAACUUUAGAGGAGGAUCUGAUGGAUAUGGCAGUGGACGUGGAUUUGGGGAUCGCUAUAAUGGGUAUGGAGGAGGACCUGGAGGUGGCAA: 0.397
CAAGUCCUGUGCUACACAUCGUAUGUACCGAAUCGGGGAAAGGGGAGGGGUGGGGAAAGUAUUAUGUUACGCCGUUCGGAUCUGCACUUC: 0.322
UGGCCCUGGUAGCAUGCGGGGAGGAAGAGGUGGCCUCAUGGAUCGUGGUGGUCCCGGUGGAAUGUUCAGAGGUGGCCGUGGUGGAGACAG: -0.224

Set 2 — technique: protein-binding microarray; form: double-stranded DNA, one strand shown; matrix: in vitro; concentration: 0.8 µM; notes: whole 60-bp probe, no competitor; direction: higher = stronger binding; quantity: fluorescence intensity; shared flanks, not repeated: … GTCTTGATTCGCTTGACGCTGCTG
Target: Centromere-binding protein 1, full length, N-terminal tag (CBF1, Saccharomyces cerevisiae, UniProt P17106, residues 1-351)
UniProt P17106, sequence (whole entry, looked up): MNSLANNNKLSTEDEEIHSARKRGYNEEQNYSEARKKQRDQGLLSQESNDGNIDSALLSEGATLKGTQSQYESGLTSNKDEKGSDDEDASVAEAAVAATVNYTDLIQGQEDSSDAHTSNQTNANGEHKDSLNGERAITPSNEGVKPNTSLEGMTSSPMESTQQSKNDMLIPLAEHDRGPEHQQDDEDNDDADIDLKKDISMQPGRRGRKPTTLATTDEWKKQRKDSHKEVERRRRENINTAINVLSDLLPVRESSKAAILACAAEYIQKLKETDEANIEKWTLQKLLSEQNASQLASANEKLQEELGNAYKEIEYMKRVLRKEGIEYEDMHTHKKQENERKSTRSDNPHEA
GAAATCAAGATAAATGGCACGTGTATGTACGGCTAG: 6690 a.u.
TGTACGAAGCTATAGTGCGTGTCTATAGTAGTTAGG: 515 a.u.
GAACAAGAGACACGTCACGACACAACACGATGATAG: 780 a.u.
CTACTCAGGTGATGAAGCGTGATGACGATGACATTC: 859 a.u.
TGTACGAAGCTATGTCTCGTGATTATAGTAGTTAGG: 2220 a.u.
GAATTCGGATCACATCAGCTGTGAGAGTACGGTTAG: 573 a.u.
CTATGTGAGGTGCATTACATCATGAAAGAGTATTTC: 543 a.u.
GAACTATGTAAAGGTGATCCAGTCTTGGTTAGCTAG: 498 a.u.
CTACCTGACATAGCCCTGATGTTGAAGATTTTCTTC: 492 a.u.
CTAGCACGTGCGATCATCGTGGCGGGGTTTTAATTC: 7870 a.u.
CTATAGCAAATTTATCATGAGAGCGCTTCAGTGTTC: 526 a.u.
TGTACGAAGCTATGTGACCAGTTTATAGTAGTTAGG: 601 a.u.
CCTAACTACTATACATGTGAGCTATAGCTTCGTACA: 832 a.u.
GAAAAAGCTTACGCTGATGTAAGTAATGAGTAATAG: 532 a.u.
CTATAGTAAAGTGCTGATGTCTTCTGAGTTGTCTTC: 522 a.u.
CTAAGAACCAGTCATCAGACTAATGAAAGCTGATTC: 573 a.u.

Set 3 — technique: protein binding microarray; form: double-stranded DNA, one strand shown; matrix: in vitro; concentration: not given; baseline: not given; direction: higher = stronger binding; quantity: E-score
Target: Histone acetyltransferase KAT6A, winged helix 1, GST fusion (KAT6A, Homo sapiens, UniProt Q92794, residues 1-85)
Notes: 8-mer, flanks averaged, mean of 2 arrays, mostly near background
Residues (chain): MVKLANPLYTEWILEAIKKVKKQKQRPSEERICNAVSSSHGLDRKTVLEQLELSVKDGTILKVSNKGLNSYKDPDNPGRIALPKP
GAAAGATC: -0.0454
CTACTCAC: -0.0381
AAGATTAC: 0.071
CGGCGTTC: 0.382
TATTGCCA: -0.117
GGCATGCC: 0.326
AGACCGCT: 0.213
CCTAGATA: -0.187
AGGTAATC: -0.0751
ATGCCACA: -0.286
CGCAGCCA: 0.0248
GTGTCTTA: -0.219
TATATAGA: -0.17
CCGATGCG: 0.334
ACCTGCAC: -0.112
AGACTAAA: -0.0587
GCACGGCC: 0.387
AACCGCTG: 0.0819
GACGAACC: 0.0441
CCTAACGC: 0.202
CGCACCCC: 0.229
ACGCGTTC: 0.345
AGTAACGC: 0.09
CTAAGTAG: -0.255
GAATAGCA: -0.291

Set 4 — technique: protein-binding microarray; form: double-stranded DNA, one strand shown; matrix: in vitro; concentration: 250 nM; notes: 60-bp whole probe; together with: salmon DNA 0.4 mg/ml; baseline: random background probes; direction: higher = stronger binding; quantity: log fluorescence; shared flanks, not repeated: GCCTAGCAC … GTCTTGATTCGCTTGACGCTGCTG
Target: Interferon regulatory factor 5, full length, phosphomimetic (IRF5, Homo sapiens, UniProt Q13568-2, residues 1-514, K96S/S451D/S453D/S456D/S462D)
TTTGGTATCCTACTGCTTTAGTGCTAG: 0.344 z-score
TCATCCATGCTCTGTCGCACTGTGCTA: 0.0957 z-score
TCAGATTTATCAAATGTGACTGTGCTA: 0.386 z-score
TTAGGTATCGGAGTGGGTTAGTGCTAG: 1.23 z-score
TTAGGTATCGGGTTTCGGTTCGTGCTA: 7.96 z-score
CTCATTCGTCATTTCACAGTGTGCTAG: 0.745 z-score
TCAAACTTGTGTTTGTCACTGTGCTAG: 0.316 z-score
TTAGGTATCCTTCTCCATTAGTGCTAG: 0.427 z-score
TTAGGTATGGGTATCGGTTAGTGCTAG: 3.61 z-score
TTAGGTTCCCATTTCCTTTAGTGCTAG: 0.459 z-score
CAGAATTTACTTTCTACGTCGTGCTAG: 3.34 z-score
TTGGATCTCAGTTTCGATTAGTGCTAG: 8.94 z-score
TTAGATATCAGACCGGATTAGTGCTAG: 0.202 z-score
TCAACTTCTCTTTTTGCACTGTGCTAG: 1.01 z-score
TTAGGTATTGGTATCGGTTAGTGCTAG: 7.45 z-score
TTAGGACTGGGTCTCGGTTTGTGCTAG: -0.0343 z-score
GACTGACTGGACTTTCGGGACGTGCTA: 4.37 z-score
TCATGGTTGAACATGAAACTGTGCTAG: 0.408 z-score
TCACTTTTCTTTACTGAACTGTGCTAG: 1.53 z-score

Excerpt of the above (set 2):
TGTACGAAGCTATAGTGCGTGTCTATAGTAGTTAGG: 515 a.u.
GAACAAGAGACACGTCACGACACAACACGATGATAG: 780 a.u.
CTACTCAGGTGATGAAGCGTGATGACGATGACATTC: 859 a.u.
TGTACGAAGCTATGTCTCGTGATTATAGTAGTTAGG: 2220 a.u.
GAATTCGGATCACATCAGCTGTGAGAGTACGGTTAG: 573 a.u.
CTATGTGAGGTGCATTACATCATGAAAGAGTATTTC: 543 a.u.
GAACTATGTAAAGGTGATCCAGTCTTGGTTAGCTAG: 498 a.u.
CTACCTGACATAGCCCTGATGTTGAAGATTTTCTTC: 492 a.u.
CTAGCACGTGCGATCATCGTGGCGGGGTTTTAATTC: 7870 a.u.
CTATAGCAAATTTATCATGAGAGCGCTTCAGTGTTC: 526 a.u.
